Published values of several laboratories.
Numbered parts are unrelated; each lists some results of a single study.

Study 1 — method: protein binding microarray; form: double-stranded DNA, one strand shown; sample: in vitro; tested at: not given; relative to: not given; reading: higher = stronger binding
Target: Histone acetyltransferase KAT6A, both winged helices, GST fusion (KAT6A, Homo sapiens, UniProt Q92794, residues 1-181)
Setting: 8-mer, flanks averaged, mean of 2 arrays, mostly near background
Residues (chain): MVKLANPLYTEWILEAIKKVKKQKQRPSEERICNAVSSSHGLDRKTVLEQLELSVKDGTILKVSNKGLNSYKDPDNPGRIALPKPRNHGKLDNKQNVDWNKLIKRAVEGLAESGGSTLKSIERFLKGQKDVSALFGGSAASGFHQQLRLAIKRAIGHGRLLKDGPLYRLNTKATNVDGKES
| Oligonucleotide | E-score |
| --- | --- |
| CGAGAAAA | -0.096 |
| AATAAGTG | -0.17 |
| AGCGCAAG | 0.194 |
| ACGGGCAT | 0.243 |
| CTTCTTTA | 0.0302 |
| CCAAGTTA | -0.141 |
| GCTACTTA | -0.148 |
| ACCGAAGG | -0.021 |
| CTTCTCCC | -0.189 |
| CTACTCAA | -0.0693 |
| TAGGCAGA | -0.0707 |
| CGAGGCCC | 0.000305 |
| ATGCAAAC | -0.0691 |
| GCACGATA | 0.0403 |
| AAAGTTAG | -0.00651 |
| ACGTAAAG | -0.0715 |
| GAGGCGCC | 0.262 |
| CGATGAAG | -0.00096 |
| CCCTGCTA | -0.138 |
| CATATGTA | -0.124 |
| CTGATCCC | -0.152 |
| AGTTCCGA | 0.137 |

Study 2 — method: EMSA with sequencing; form: double-stranded DNA, one strand shown; sample: in vitro; tested at: 10 and 20 nM; relative to: negative control set to 0; reading: higher = stronger binding
Target: Hepatocyte nuclear factor 3-alpha (Foxa1, Mus musculus, UniProt P35582, residues 1-468, full length assumed)
UniProt P35582, sequence (whole entry, looked up): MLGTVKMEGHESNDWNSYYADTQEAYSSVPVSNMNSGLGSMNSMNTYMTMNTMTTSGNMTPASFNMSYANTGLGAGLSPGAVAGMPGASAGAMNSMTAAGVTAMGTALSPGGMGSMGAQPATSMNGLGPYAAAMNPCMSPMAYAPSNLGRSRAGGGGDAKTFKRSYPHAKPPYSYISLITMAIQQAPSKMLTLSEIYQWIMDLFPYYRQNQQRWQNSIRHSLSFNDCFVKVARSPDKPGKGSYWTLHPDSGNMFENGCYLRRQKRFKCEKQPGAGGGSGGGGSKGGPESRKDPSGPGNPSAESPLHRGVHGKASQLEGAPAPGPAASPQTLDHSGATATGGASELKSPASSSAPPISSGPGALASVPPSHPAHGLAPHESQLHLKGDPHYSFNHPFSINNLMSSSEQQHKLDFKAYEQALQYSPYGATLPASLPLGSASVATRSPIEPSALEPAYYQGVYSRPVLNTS
Setting: whole designed probe, mean of two concentrations, ends assumed
Constant ends, left off below: GTGAGCGGTGCCCATTGATGGGGAAC … TTTCACTGGGATCGTGGGGAC
| Oligonucleotide | normalised bound fraction [ratio] |
| --- | --- |
| CCGCCCGCGCGGGGCTTTGCTCCGCGGGAATTAAAGGAAGGAGAAATGTTAGTACACTTTTAATTGGAAACCGAGTTCTTCTTTCAGAGCGGCTTGTTTACTCAGGATTGGGCATTAGAACTCAGGGGAGGCTCTAATTGAAGTGACGGCTTTGGAGATTATGGGGAACATATGGCCCTACCGCCGGGCTCTT | 0.342 |
| TTGAGTTTTTTCCACTTTTTGACTACTATGAATAATGCTTCTGTAATCTTTCTTGTACAAGTTTCTTTGGGAAATATTTTTTCAGTTCTCCTGAGAGTACTTAGGAGTTGAATTGCTGAGTCATGTGGTAACTATGTTTAGCTTTTTGAGGAACTGCCAAACTATTTTCCAAAATGACTGCACCATTTTACAA | -0.0435 |
| TTTCAGAGGACATCCTCTCCCCACCCAACCCCTACACCCGCCATGGCCCCAGGTTCATCTCTGCCGGCCCATATGACTCATTTGCTCTGGTGTGTTTACTCAGGCACCTGTTTACCCTCGTTTATGGCCGGCTTATTTATGGCTGGCTTCCAGGAACACAAGCTCCAGGAAGCGGTGGCCAAGAAAGTAGTGG | 0.443 |
| AACTAGTTTAACAACAAAAAAATTTTACATTTATTTCCATTTTTATGATTCAACTAGTTAATAGTTTTTCAAAAATATTACTATATCTTTCAAAGTAATCTTAAAAATAATGAAATTTATGTCTGAGATATAAAATCTCAATTGGCTTTATAATAAATATATGCTTATTAATACATGTGGTAGATGTATGCAT | 0.111 |
| GATTCCAGCCAGCAGAATAGGAATTTCAGAATACGATAAGGAGATGTTAAGGAAGGTCAGGCAGTAAAAAGAGGTTTGCTGACTCATGTGGTTAGATGACTTAGCAAGTCAGGGAGAAGTCAATAGATTGCTCTCCTGTTTTACAGTCTTTAGGTGTGGGCCAGCCCAGGGCCATTGATAGTCATTTTAGCCA | -0.0329 |
| ATCTTCCCCCTCTTCCTTGCCCCACCAGCTCACCTTCCCGGGTTATTTGCAGATAGGAAAATAAATAAAGCCGGCATTCGTTAACCCTCTTCTGGCGCAAACTGCTGTTTGCTCTGCATGAATCATGGTCCTTACGCGACGCCAGGCTCCGGGAGAGCAAAGCACCGTGTCAGGCGCATGATCCGGGGTGGCC | 0.345 |
| TCTGGATTTTTGGTACCATGTGGTTCTCAGGGCCTCCAAATAAAGTCAATCTGATTAGCACTGATCACCCAAATAATAAAAAAATTAGTACTTGTTTACTTTTTTAGGGAGGAATTCTCTTTATTTTCCCCCATCCCACATCTTTTTAATTGTCAGCTCTTTTAAAAATTATAAAAGTGCCAGTTGGCCATCT | 0.412 |
| ATATTTTACATACGTGTATTAAATATATATATATATAAATGTCTCCTGTTCTTTTTCAGTAATCATAGTGTTTTTACAATTATCTGTTACTATGTAATCTTTTATTTCAAGGCATTGGTCACGTTACCTACCTACTCTTCCAGGGAATGGACATGCAGATTGCCTTCATACCCTCCCACCACAGGAAATGCTG | 0.0421 |

Study 3 — method: RNA Bind-n-Seq; form: RNA; sample: in vitro; tested at: 200 nM; setting: whole 134-nt RNA, ends assumed; added: 150 mM LiCl; relative to: input library; reading: higher = stronger binding; each molecule: 7-deaza-guanosine replaces G
Target: Ras GTPase-activating protein-binding protein 1, full length (G3BP1, Homo sapiens, UniProt Q13283)
UniProt Q13283, sequence (whole entry, looked up): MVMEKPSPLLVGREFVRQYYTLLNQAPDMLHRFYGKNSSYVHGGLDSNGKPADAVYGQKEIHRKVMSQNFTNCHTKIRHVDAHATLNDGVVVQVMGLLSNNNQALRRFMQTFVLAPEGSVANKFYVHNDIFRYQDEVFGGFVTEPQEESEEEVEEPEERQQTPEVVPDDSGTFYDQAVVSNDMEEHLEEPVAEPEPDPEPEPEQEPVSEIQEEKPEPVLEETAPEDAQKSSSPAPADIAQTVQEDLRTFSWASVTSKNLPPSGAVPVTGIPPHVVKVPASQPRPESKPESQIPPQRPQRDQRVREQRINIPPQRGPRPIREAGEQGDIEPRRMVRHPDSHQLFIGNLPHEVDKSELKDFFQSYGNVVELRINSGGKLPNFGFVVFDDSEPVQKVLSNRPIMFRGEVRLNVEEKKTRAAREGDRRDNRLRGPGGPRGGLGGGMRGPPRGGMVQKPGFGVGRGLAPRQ
Constant ends, left off below: GGGAGUUCUACAGUCCGACGAUC … UGGAAUUCUCGGGUGUCAAGG
| Oligonucleotide | log2 enrichment |
| --- | --- |
| UGGCCCUGGUGGCAUGCGGGGAGGAAGAGGUGGCCUCAUGGAUCGUGAUGGUCCCGGUGGAAUGUUCAGAGGUGGCCGUGGUGGAGACAG | 0.119 |
| UCAAGUCCUGUGCUACACAUCGUAUGUACCGAAUCGGUUUUUUUGGAAAGGUGGAAAGUAUUAUGUUACGCCGUUCGGAUCUGCACUUCC | -0.1 |
| AGUCCUGUGCUACACAUCGUAUGUACCGAAUCGGCCCCCGGGGCCCCCGGCCCCCGGGAAAGUAUUAUGUUACGCCGUUCGGAUCUGCAC | -1.18 |
| UCCUCAAGUCCUGUGCUACACAUCGUAUGUACCGAAUCGGGCGGCGGGCGGAAAGUAUUAUGUUACGCCGUUCGGAUCUGCACUUCCAGC | 0.779 |
| GUCCUGUGCUACACAUCGUAUGUACCGAAUCGGGGUUUUUGGUUUUUGGUUUUUGGGGAAAGUAUUAUGUUACGCCGUUCGGAUCUGCAC | -0.822 |
| UCCUCAAGUCCUGUGCUACACAUCGUAUGUACCGAAUCGGGCGGGGCGGCGGAAAGUAUUAUGUUACGCCGUUCGGAUCUGCACUUCCAG | 0.853 |
| UCCUGUGCUACACAUCGUAUGUACCGAAUCGGGGUUUUUGGGGUGGGGUUUUUUUGGGGAAAGUAUUAUGUUACGCCGUUCGGAUCUGCA | -0.582 |
| CCUGUGCUACACAUCGUAUGUACCGAAUCGGGAAAAAAAGGAAAAAAAGGGAAAAAAAGGAAAGUAUUAUGUUACGCCGUUCGGAUCUGC | -0.0842 |
| UGGGAGGUGGAUUUGGUUUAUUUUUUUAGCUCAUUUCCAGGGGUGGGAAUUUUUUUUUAAUAUGUGUCAUGAAUAAAGUUGUUUUUGAAA | 0.0427 |
| UAACUUUAGAGGAGGAUCUGAUGGAUAUGGCAGUGGACGUGGAUUUGGGGAUGGCUAUAAUGGGUAUGGAGGAAGACCUGGAGGUGGCAA | -0.337 |
| ACCAUGCAGGUGGGCAUCUUUGGAAAGUGGGGCAAGGGGGGGAUAGGGAGGGGGGUAACACUUUGGGAACAGGUGGUCCCAGGUCGUUUC | 0.294 |

Study 4 — method: RNA Bind-n-Seq; form: RNA; sample: in vitro; tested at: 365 nM; relative to: no-protein control; reading: higher = stronger binding
Target: RNA binding protein fox-1 homolog 2, RRM domain, GST-SBP tag (RBFOX2, Homo sapiens, UniProt O43251-10, residues 100-194)
Setting: natural RNA segment, single round, ends assumed
Constant ends, left off below: GGGAGUUCUACAGUCCGACGAUC … UGGAAUUCUCGGGUGCCAA
Target sequence (chain): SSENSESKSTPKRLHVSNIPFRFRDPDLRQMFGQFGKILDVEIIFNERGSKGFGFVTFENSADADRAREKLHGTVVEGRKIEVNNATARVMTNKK
| Oligonucleotide | RBNS enrichment (R) |
| --- | --- |
| AAGAUCCUGUCCUGAUUCUCAAAAAUUAUUUUCUCUGUAUGAUUAAAAGUUUAUUCCAUUUAUUUUAGUUUGUGUUUACUUGAUUUUGAGGAAGAAAAUAUUUGACUUUG | 0.587 |
| AUGAGAACCUUGGCCUUUAUCACCCAAACAAGAACUCUCUAUGAGAUUGGUUGACGUGAGUUGGUUGAGUCUCUGGAGCAUCAGUUUUCAACUUCUGGAUCGCAACCCCU | 0.161 |
| UGGUCAGAGGGACAGAGCAAGGAAUGCAUCCUGAGCCCACAGCUUUGACCACUGUGAUCCAGAAGAGAGGUGCACUACGUGGGAAGUGCUGAUUCCACAGCAUGCAGCCU | 2.45 |
| UUGAGAACCGCUGCUCUCAUAGACUGCUCCUCCAAGGGGAAGCAGUGUGGAACAGCAGAGAAAGUCCCGUCCCUAUCUCUGACUGUGCAGUGAGUGUGGCCUAGGAACAG | 0.364 |
| GCCUCUUUCAUUGAAUGAGAAUUGCUUUCGUAUAGUUCACAUUAGAAAAAUGCCUAAUAUACUAAAGUAAACCAAACGUUGUCACUUUUCUCUUGUUCUUGAAACAUUGC | 0.322 |
| AUUAAACCAAGUAACAUUGGGUCCUUUUUAGGUCCCACUUAAGCUGCUCUCCUGUGUGUGCUGAGGGCCAGCCUCACCCCAGGCUAGCCUGGACCCCCAGUGCUCCCUGU | 0.242 |
| GGGGUAGCCGGAGAAGGGCCUCUGGAGCAGGUCUGGAGGGGCCAUGGGGAAGUCCUGGGUGUGGGGACACAGUCGGGUUGACCCAGGGCUGUCUCCCUCCAGAGCCUCCC | 0.843 |
| AGGAGGCUGCUACAUUCCUCUCGUUCUGUCUCACACACUCUUCCUCCGAGUUUGUGUGUCUAGAACUUGGAUGUUUCCAUAAGGAAAACAGAACUGUGGUAUUGUUUCGA | 0.396 |
| AACUGUUUUCUUUCUUUUUUCCUGUCUCCCUCCCGUCCUUUGUGGUGGGAGGGCAGGAGGCCCAAUGGUUGAAAAUAAGAGGGUUCCCGCCCAGAACUCUUCUUGUGAGA | 0.226 |
| UGUUAUCUUUAUUUAGCUGAGGUUAAAUUAAUCUCUGUUGUGCAAGAAAAACAUGAAGCUUGCCCCUCGAGGGAUCUACUCCUGUUUUUCCCGUCAUCUGUUGGCUUCAG | 0.308 |
| GGCUCUACAGUGCUUACUGCAGCCUUGUGUCCACCACCAACUUCUCAGCAUGUUUCUCUCCUUGGACCUUGGGUUUCCAACUCUGCAGCCUUCAGGUCUGGGGCCAGGAG | 19.6 |
| UUGUGGAAAAUGAAAAUUAGGAUUUCAUGAUUUUUUUUUUUCAGUCCCCGUGAAGGAGAGCCCUUCAUUUGGAGAUUAUGUUCUUUCGGGGAGAGGCUGAGGACUUAAAA | 0.325 |

Excerpt of the above (study 2):
| Oligonucleotide | normalised bound fraction [ratio] |
| --- | --- |
| TTGAGTTTTTTCCACTTTTTGACTACTATGAATAATGCTTCTGTAATCTTTCTTGTACAAGTTTCTTTGGGAAATATTTTTTCAGTTCTCCTGAGAGTACTTAGGAGTTGAATTGCTGAGTCATGTGGTAACTATGTTTAGCTTTTTGAGGAACTGCCAAACTATTTTCCAAAATGACTGCACCATTTTACAA | -0.0435 |
| CCGCCCGCGCGGGGCTTTGCTCCGCGGGAATTAAAGGAAGGAGAAATGTTAGTACACTTTTAATTGGAAACCGAGTTCTTCTTTCAGAGCGGCTTGTTTACTCAGGATTGGGCATTAGAACTCAGGGGAGGCTCTAATTGAAGTGACGGCTTTGGAGATTATGGGGAACATATGGCCCTACCGCCGGGCTCTT | 0.342 |
| AACTAGTTTAACAACAAAAAAATTTTACATTTATTTCCATTTTTATGATTCAACTAGTTAATAGTTTTTCAAAAATATTACTATATCTTTCAAAGTAATCTTAAAAATAATGAAATTTATGTCTGAGATATAAAATCTCAATTGGCTTTATAATAAATATATGCTTATTAATACATGTGGTAGATGTATGCAT | 0.111 |
| GATTCCAGCCAGCAGAATAGGAATTTCAGAATACGATAAGGAGATGTTAAGGAAGGTCAGGCAGTAAAAAGAGGTTTGCTGACTCATGTGGTTAGATGACTTAGCAAGTCAGGGAGAAGTCAATAGATTGCTCTCCTGTTTTACAGTCTTTAGGTGTGGGCCAGCCCAGGGCCATTGATAGTCATTTTAGCCA | -0.0329 |
